Measurements from different studies.
Every numbered part comes from another study and shows a few of its results, in no order. Positions count from the first letter of the parent shown.

Sample 1
Target: RNA binding protein fox-1 homolog 2, RRM domain, GST-SBP tag (RBFOX2, Homo sapiens, UniProt O43251-10, residues 100-194)
Method: RNA Bind-n-Seq
Molecule type: RNA
Matrix: in vitro
Concentration: 365 nM
Notes: natural RNA segment, single round, ends assumed
Baseline: no-protein control
Reading: higher = stronger binding
All sequences stand within: GGGAGUUCUACAGUCCGACGAUC … UGGAAUUCUCGGGUGCCAA
Target sequence (chain): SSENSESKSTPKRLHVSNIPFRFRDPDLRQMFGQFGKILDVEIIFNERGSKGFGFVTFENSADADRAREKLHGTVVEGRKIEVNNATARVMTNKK
| Sequence | RBNS enrichment (R) |
| --- | --- |
| CUUUCAGUUAUCCAUAAAUCUAAGCAUAACUGCUACCAUUUAUACAUGAGAAAAUGACAGAGGAACUAAUAUAAGAGCAGAUCUUGACCCUUGCUGGGUCACUAUAAUUC | 0.291 |
| GCCACACCGCACUGAGGACUCCAAGGCCUUCGCGGGACCAUGCCGGCCGGGCUGCCUCGUCUUACUCAAGUUGUAUUAAGUUGUCUCCGUGUCCCUUCCUCCCUCUGCCC | 0.575 |
| AACAGAUAAAGUAGCUGAUGCCUAGAAGAUCCUCUGCUUUUUCCGAUCCAGUGGUAGCCUUUGAUACUCCAAAGUAAUUAUGUUCACCCUCUGUACUAAUGACAUUUACA | 0.458 |
| AGCGGGGGGCCUCUUCCUUCCUGGUGCUGGUCAGGGGGCCUGGAAACAAACUUUCUGAGGCUGGGUCAGCUUGCCUUAUAGUACUCCUCUCCUGCUAUGCCAACCUCAGG | 0.436 |
| AGGGGAAGGUACCGAUAUCAUUGAGCUAUUUAAAGUUGCCAGUUUGGGCUCCAGUAAUGCUUUCUGGUGGGUAAAAUUCCACAUUCAGGCCACGAGAGCAUCUACAGUUU | 0.308 |
| CUUUUCCUCGUUACCAGUGUGUGAUGUCACAACUGAAACUUGUGUUAGUAACGUCUAAGGCCAUGUUGCCUUUGUCUUUAGAGUAAUUCCUGGCUGUGCCUACCACUCCU | 0.238 |
| CACCCAGAGGCAUUAACAGGUCCCCAGACUAGGGCCUACACUGAGGGUAGAACCUGGAACCACAGUUGUUGCUGACCUGCUGGAAUGAAGUCAGAGUAUCAUCUAAAGUU | 2.77 |
| UGCUCAGACUCCAGCGCUCCGUUCUUCAAGGAGGUUGACUUGCCUCUCGGGCCCCGUAGGUACCAAGAGACUGUUUACCUCCCAGAAUGUUUGGGCUUGAAGUUACAUUA | 0.167 |

Sample 2
Target: CCNF, cyclin fold, Cln2 fusion (human)
Method: yeast growth competition, sequencing
Matrix: yeast
Notes: strong parent motif
Baseline: not given
Reading: higher = stronger binding
Starting sequence: WEE1 docking peptide (human); HKTFRKLRLFDTP; partner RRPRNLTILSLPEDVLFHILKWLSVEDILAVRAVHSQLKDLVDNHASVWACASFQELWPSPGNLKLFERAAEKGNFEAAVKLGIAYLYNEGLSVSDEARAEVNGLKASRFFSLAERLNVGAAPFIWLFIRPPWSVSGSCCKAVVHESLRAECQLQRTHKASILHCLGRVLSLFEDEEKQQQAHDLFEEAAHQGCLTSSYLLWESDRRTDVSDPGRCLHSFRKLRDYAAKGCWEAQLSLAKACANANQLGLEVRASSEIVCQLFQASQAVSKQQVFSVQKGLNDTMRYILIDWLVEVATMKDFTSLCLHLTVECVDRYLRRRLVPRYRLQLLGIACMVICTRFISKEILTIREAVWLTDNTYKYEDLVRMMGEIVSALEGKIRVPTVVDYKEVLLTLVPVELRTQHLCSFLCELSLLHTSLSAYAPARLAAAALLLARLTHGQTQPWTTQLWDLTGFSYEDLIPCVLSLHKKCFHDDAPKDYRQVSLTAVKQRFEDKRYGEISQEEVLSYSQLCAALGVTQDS
| Variant | normalised enrichment score |
| --- | --- |
| D11V | 2.43 |
| P13V | 2.62 |
| R5P | 1.2 |
| F4H | 3.23 |
| D11R | 2.21 |
| R5K L9F | 1.37 |
| F4T | 1.84 |
| K6Y | 2.16 |
| F10M | 1.4 |
| F4V | 2.95 |
| T12W | 2.51 |
| D11W | 2.78 |
| K2A | 2.05 |
| R8Q | 2.75 |
| H1T | 1.5 |
| D11P | 2.32 |
| P13F | 2.11 |
| D11G | 0.942 |
| H1V | 1.61 |
| K2W | 2.63 |
| R5Q | 1.6 |
| K2V | 1.26 |
| R5S | 1.86 |
| K6E | 0.792 |
| F4L | 1.49 |

Sample 3
Target: OGT, full length, His-tagged (human)
Method: phage display, sequencing
Matrix: in vitro
Concentration: 1 µg OGT
Notes: single substitutions, 15-mer displayed peptide, unchanged parent 16.7
Baseline: input library
Reading: higher = stronger binding
Starting sequence: peptide; NSEYMPQYQIIFAHQ
| Variant | fold enrichment |
| --- | --- |
| NSEYMPQHQIIFAHQ [Y8H] | 0.615 fold |
| NSEYMPQYRIIFAHQ [Q9R] | 2.79 fold |
| NSEWMPQYQIIFAHQ [Y4W] | 11.3 fold |
| NSEMMPQYQIIFAHQ [Y4M] | 0.836 fold |
| NSEYMPWYQIIFAHQ [Q7W] | 9.83 fold |
| NSEYMPQYQINFAHQ [I11N] | 11.6 fold |
| NSEYMPQAQIIFAHQ [Y8A] | 0.631 fold |
| NSEYMPQYQIIFPHQ [A13P] | 34.4 fold |
| NSEYMSQYQIIFAHQ [P6S] | 1.48 fold |
| NSEYMPQYQIIFAHS [Q15S] | 15.7 fold |
| NSEYMIQYQIIFAHQ [P6I] | 3.81 fold |
| NSEYMPQYQIIFAYQ [H14Y] | 12 fold |
| NSEYMPQYQIINAHQ [F12N] | 0.355 fold |
| NSEYMPQYQQIFAHQ [I10Q] | 0.581 fold |
| NSEYMPQYQIIFAQQ [H14Q] | 14.8 fold |
| NSEYMPQYQNIFAHQ [I10N] | 0.297 fold |
| NSEYMPHYQIIFAHQ [Q7H] | 10.9 fold |
| NSEYFPQYQIIFAHQ [M5F] | 10.2 fold |
| NSEYAPQYQIIFAHQ [M5A] | 13 fold |
| NSEYMPQYKIIFAHQ [Q9K] | 8.43 fold |
| NSYYMPQYQIIFAHQ [E3Y] | 12.6 fold |

Sample 4
Target: Sal-like protein 4, full length isoform A (SALL4, Homo sapiens, UniProt Q9UJQ4, residues 1-1053)
Chain of UniProt Q9UJQ4 (whole entry, looked up): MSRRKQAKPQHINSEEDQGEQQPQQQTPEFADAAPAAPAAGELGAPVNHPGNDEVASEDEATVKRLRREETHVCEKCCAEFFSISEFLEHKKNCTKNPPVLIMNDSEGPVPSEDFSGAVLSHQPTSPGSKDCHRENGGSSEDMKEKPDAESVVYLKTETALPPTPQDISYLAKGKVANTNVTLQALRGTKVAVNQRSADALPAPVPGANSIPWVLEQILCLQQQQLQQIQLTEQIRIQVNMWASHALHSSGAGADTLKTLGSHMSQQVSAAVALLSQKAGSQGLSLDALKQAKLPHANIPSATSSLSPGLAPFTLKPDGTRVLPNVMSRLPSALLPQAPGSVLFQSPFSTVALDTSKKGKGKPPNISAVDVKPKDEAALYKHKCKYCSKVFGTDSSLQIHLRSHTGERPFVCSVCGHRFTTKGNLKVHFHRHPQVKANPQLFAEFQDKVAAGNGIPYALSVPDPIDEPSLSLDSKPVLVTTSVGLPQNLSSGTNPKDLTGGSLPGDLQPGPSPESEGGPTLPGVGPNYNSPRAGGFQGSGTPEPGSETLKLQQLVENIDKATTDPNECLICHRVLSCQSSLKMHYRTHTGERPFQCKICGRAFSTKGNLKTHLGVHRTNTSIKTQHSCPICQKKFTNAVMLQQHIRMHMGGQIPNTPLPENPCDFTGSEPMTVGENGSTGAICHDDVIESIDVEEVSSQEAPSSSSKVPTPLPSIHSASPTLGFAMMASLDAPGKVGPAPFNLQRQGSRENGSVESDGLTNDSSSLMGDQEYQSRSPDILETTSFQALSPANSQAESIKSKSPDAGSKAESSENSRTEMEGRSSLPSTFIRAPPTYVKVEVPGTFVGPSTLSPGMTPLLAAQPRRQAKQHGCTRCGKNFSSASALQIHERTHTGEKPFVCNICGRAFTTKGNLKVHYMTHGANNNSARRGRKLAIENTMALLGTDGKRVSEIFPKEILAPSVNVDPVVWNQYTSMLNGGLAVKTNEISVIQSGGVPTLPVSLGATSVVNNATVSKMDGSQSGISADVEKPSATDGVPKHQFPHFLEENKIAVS
Method: universal PBM
Molecule type: double-stranded DNA, one strand shown
Matrix: in vitro
Concentration: 600 nM
Notes: 8-mer, flanks averaged, mean of replicates
Reading: higher = stronger binding
| Sequence | E-score |
| --- | --- |
| CTCTGCCA | -0.081 |
| CCGGTTCC | -0.379 |
| CGCATTCA | 0.149 |
| CCATACTA | 0.256 |
| GAGCTCGC | -0.118 |
| CATAATGG | 0.0763 |
| AAAGGATT | 0.132 |
| CGTAAGAC | -0.0396 |
| TGACTCAA | 0.0278 |
| AAGGGATT | 0.0363 |
| AGTACCTA | 0.161 |
| ACTTAGCT | -0.0927 |
| GCTGATCA | -0.0949 |
| AGGCGTGC | -0.156 |
| ACCAGACT | -0.134 |
| ACAATTCT | 0.168 |
| GAAGGACC | -0.219 |

Mixed results
| Molecule | target | assay | system | setting | how to read | endpoint | result |
| --- | --- | --- | --- | --- | --- | --- | --- |
| PhoQ, residues 284 288 289 292 302 303 ASVMEA | PhoP, residues 12 14 15 18 19 LHSVW (Escherichia coli, UniProt P23836) | Sort-seq, refers to: YFP reporter | E. coli | PhoQ-PhoP variant library, added: 10 µM Mg2+ | baseline: high Mg2+ state, higher = stronger signaling | fold induction | 10.1 |

A few entries again (sample 3):
| Variant | fold enrichment |
| --- | --- |
| NSEYMPQAQIIFAHQ [Y8A] | 0.631 fold |
| NSEYMPQYQIIFPHQ [A13P] | 34.4 fold |
| NSEYMSQYQIIFAHQ [P6S] | 1.48 fold |
| NSEYMPQYQIIFAHS [Q15S] | 15.7 fold |
| NSEYMIQYQIIFAHQ [P6I] | 3.81 fold |
| NSEYMPQYQIIFAYQ [H14Y] | 12 fold |
| NSEYMPQYQIINAHQ [F12N] | 0.355 fold |
| NSEYMPQYQQIFAHQ [I10Q] | 0.581 fold |
| NSEYMPQYQIIFAQQ [H14Q] | 14.8 fold |
| NSEYMPQYQNIFAHQ [I10N] | 0.297 fold |
